Results of several laboratories.
Lines come from different studies, so protocols differ. ± marks the error that the study gave.
Alpha-carbonic anhydrase: Alpha-carbonic anhydrase (Enterococcus faecium, UniProt Q3XYE8)
PLEKHA5 PH domain: Pleckstrin homology domain-containing family A member 5, PH domain (PLEKHA5, Homo sapiens, UniProt Q9HAU0)
UniProt Q9HAU0, sequence (whole entry, looked up): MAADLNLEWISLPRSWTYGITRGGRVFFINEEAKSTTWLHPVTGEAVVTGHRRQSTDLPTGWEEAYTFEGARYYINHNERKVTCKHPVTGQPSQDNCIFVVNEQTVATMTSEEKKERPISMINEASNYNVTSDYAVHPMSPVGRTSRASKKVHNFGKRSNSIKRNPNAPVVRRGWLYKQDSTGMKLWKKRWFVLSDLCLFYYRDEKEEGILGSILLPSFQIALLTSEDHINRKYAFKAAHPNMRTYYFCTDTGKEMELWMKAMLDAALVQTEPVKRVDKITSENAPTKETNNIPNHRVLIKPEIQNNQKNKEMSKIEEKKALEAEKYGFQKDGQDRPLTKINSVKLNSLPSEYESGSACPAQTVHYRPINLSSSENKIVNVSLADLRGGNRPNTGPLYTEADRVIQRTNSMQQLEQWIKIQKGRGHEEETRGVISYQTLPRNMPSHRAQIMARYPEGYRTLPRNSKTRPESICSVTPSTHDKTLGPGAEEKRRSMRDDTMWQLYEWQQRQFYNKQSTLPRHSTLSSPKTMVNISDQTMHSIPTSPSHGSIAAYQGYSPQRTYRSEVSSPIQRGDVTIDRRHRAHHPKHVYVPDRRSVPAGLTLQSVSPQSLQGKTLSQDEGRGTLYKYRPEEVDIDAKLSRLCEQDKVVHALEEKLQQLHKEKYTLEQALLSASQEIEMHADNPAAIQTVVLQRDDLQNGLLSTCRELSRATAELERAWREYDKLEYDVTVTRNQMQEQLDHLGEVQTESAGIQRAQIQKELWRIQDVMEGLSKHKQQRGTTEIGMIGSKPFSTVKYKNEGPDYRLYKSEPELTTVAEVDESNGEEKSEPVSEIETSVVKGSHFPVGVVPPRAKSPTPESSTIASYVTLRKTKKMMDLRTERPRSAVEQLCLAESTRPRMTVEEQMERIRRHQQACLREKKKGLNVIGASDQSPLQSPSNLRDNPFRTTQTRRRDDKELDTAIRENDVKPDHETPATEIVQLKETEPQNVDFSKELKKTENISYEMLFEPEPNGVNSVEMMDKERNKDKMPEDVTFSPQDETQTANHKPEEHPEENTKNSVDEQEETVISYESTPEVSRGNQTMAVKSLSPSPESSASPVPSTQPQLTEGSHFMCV
ZBTB11/CRBN: ZBTB11/CRBN (Homo sapiens, UniProt O95625+Q96SW2)
UniProt O95625, sequence (whole entry, looked up): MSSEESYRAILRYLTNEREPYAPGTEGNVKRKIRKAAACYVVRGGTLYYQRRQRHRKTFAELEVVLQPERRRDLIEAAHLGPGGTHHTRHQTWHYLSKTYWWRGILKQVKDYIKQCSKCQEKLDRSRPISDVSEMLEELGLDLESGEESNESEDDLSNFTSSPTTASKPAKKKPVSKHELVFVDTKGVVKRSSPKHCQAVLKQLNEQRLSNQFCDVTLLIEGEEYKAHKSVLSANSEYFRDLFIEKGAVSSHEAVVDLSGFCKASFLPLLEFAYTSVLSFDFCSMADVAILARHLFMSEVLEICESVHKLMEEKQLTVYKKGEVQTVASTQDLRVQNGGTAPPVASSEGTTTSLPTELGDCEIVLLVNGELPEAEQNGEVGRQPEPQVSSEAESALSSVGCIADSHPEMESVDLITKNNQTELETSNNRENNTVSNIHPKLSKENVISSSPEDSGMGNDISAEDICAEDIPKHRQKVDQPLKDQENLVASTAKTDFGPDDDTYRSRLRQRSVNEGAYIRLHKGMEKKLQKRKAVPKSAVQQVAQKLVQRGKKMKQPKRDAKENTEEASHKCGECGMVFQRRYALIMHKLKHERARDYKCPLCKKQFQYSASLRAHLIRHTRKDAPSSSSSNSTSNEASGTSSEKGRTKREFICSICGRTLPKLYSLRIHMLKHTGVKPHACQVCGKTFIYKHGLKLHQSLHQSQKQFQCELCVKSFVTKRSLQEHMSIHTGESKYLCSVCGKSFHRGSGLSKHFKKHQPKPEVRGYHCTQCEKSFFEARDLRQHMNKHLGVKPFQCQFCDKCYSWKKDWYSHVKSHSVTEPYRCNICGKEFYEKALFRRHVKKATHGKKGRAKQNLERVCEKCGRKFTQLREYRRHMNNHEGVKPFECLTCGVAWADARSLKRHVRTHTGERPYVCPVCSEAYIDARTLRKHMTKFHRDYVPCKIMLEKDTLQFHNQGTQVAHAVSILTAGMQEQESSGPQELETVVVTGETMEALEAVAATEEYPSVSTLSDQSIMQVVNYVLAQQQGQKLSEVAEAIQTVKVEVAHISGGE
UniProt Q96SW2, sequence (whole entry, looked up): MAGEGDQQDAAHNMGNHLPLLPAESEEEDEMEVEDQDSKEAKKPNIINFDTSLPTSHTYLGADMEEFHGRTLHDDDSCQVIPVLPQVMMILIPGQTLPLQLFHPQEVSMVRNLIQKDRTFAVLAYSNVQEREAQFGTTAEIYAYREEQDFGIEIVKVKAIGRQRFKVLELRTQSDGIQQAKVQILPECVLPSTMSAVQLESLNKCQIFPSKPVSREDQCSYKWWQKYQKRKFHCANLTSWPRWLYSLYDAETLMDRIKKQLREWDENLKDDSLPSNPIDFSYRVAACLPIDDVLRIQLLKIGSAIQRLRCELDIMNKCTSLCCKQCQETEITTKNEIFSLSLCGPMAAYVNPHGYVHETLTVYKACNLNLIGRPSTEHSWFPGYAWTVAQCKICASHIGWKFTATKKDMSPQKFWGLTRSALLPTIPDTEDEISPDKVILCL
USP49 ZnF-UBD domain: Ubiquitin carboxyl-terminal hydrolase 49, ZnF-UBD domain (USP49, Homo sapiens, UniProt Q70CQ1)
UniProt Q70CQ1, sequence (whole entry, looked up): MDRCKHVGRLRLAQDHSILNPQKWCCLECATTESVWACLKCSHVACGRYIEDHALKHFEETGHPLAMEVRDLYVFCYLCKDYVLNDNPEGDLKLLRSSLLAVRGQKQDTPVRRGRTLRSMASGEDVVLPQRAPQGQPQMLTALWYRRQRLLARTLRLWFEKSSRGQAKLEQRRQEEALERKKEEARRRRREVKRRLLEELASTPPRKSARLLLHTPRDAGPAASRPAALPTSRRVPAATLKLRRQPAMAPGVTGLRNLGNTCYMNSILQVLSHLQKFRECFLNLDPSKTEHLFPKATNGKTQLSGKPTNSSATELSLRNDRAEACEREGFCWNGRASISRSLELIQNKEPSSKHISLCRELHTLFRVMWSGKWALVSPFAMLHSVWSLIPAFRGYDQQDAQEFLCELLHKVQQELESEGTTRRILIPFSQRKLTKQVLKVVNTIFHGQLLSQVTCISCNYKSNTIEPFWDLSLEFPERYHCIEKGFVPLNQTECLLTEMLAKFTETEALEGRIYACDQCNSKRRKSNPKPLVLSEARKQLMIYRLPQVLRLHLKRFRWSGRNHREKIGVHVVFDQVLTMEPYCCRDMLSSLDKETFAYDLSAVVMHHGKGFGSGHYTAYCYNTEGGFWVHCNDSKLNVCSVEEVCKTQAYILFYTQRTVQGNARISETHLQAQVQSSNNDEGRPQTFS
USP20 ZnF-UBD domain: Ubiquitin carboxyl-terminal hydrolase 20, ZnF-UBD domain (USP20, Homo sapiens, UniProt Q9Y2K6)
UniProt Q9Y2K6, sequence (whole entry, looked up): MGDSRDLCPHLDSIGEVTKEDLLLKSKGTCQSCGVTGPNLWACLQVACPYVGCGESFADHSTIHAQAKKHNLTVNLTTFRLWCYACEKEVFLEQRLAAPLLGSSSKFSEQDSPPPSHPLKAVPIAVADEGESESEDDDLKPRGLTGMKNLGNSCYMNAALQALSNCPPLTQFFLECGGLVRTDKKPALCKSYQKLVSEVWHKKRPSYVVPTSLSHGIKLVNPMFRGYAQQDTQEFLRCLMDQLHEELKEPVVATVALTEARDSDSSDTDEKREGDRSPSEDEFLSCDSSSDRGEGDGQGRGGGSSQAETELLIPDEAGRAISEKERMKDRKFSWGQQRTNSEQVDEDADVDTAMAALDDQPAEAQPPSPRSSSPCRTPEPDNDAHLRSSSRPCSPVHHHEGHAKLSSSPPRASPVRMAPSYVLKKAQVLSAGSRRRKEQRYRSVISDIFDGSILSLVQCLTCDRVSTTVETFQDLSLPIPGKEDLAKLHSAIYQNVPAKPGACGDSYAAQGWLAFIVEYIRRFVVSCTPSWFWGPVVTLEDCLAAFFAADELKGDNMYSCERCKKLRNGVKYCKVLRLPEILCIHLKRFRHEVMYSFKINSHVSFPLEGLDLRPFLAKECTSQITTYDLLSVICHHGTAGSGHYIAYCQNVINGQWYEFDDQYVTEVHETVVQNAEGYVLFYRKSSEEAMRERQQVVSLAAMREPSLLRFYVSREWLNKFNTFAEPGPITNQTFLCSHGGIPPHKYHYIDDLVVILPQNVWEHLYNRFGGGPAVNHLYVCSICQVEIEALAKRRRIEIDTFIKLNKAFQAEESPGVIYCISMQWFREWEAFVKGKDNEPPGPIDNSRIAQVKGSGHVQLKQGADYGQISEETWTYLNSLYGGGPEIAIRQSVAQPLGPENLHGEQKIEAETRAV
UniProt Q9ERZ8, sequence (whole entry, looked up): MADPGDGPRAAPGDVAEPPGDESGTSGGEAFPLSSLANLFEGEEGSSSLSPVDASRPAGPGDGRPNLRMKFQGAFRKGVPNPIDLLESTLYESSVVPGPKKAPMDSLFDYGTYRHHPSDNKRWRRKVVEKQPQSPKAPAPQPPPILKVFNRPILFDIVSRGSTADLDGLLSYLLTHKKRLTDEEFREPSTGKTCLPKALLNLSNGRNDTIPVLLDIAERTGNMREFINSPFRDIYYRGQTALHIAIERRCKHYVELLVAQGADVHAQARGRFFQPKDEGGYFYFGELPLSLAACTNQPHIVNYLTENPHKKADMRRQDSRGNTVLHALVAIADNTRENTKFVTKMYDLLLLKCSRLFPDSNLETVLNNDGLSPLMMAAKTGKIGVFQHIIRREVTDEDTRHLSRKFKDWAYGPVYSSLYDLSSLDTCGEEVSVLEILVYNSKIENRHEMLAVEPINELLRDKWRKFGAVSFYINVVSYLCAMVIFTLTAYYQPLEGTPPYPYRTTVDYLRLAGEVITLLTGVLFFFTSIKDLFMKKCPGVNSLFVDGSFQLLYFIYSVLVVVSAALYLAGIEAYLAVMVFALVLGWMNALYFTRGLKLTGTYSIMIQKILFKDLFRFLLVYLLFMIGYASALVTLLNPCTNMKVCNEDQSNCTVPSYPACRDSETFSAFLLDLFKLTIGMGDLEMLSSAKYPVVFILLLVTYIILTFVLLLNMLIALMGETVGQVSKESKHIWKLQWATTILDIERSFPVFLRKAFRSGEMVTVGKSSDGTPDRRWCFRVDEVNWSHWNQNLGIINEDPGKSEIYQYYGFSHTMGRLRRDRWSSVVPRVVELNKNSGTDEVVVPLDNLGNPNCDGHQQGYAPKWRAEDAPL

SMILES | target or system | assay | test system | conditions | scale | measurement | value
NS(=O)(=O)c1cnc(NC(=O)CCc2ccccc2)s1 | Alpha-carbonic anhydrase | CO2 hydration, inhibitor, stopped-flow kinetics |  |  |  | Ki | 0.525 µM
O=C(O)Cc1ccccc1O |  | binding, equilibrium dialysis LC-MS |  | 5 µM, thermostabilized A2AR-BRIL construct | baseline: no-protein control, direction not given | z-scored log2 fold change | -0.184
CCOc1ccc(C(=O)CC(SCc2ccc(Cl)cc2)C(=O)O)cc1OCC (centres unmarked) | PLEKHA5 PH domain | PLEKHA5 PI(4,5)P2 binding, fluorescence polarization |  | added: BODIPY-PI(4,5)P2 tracer |  | Ki | 20 ± 2.8 µM
O=C(O)CC[C@H](NC(=O)N[C@@H](CCCCNC(=O)[C@H](Cc1ccc2ccccc2c1)NC(=O)CCCCCNC(=O)CN1CCN(CC(=O)O)CCN(CC(=O)O)CCN(CC(=O)O)CC1)C(=O)O)C(=O)O [gallium-68 labelled] |  | gamma counting | mouse, PC-3 xenograft, blood | intravenous, 3.7 MBq, 2 h |  | tissue uptake | 7.03 ± 0.31 %ID/g
O=C1CCC(N2C(=O)C=C(Nc3cccc(C4(NCCc5ccc(Cl)c(C(F)(F)F)c5)CCC4)c3)C2=O)C(=O)N1 (centres unmarked) | ZBTB11/CRBN | degrader | human cells |  |  | DC50 | 0.28 ± 0.12 µM
C[C@H](Cc1ccccc1)Nc1ncnc2c1ncn2[C@@H]1O[C@H](CO)[C@@H](O)[C@H]1O | adenosine A1 receptor, sheep | competition binding | striatum membranes | second site, dimer model, added: 0.009 nM [3H]DPCPX |  | Kd | 0.0053 ± 0.0005 µM
Cc1cccc(C(=O)Nc2nnc(S(N)(=O)=O)s2)c1 | Alpha-carbonic anhydrase | CO2 hydration, inhibitor, stopped-flow kinetics |  |  |  | Ki | 0.0281 µM
O=C(O)c1cccnc1Nc1cccc(C(F)(F)F)c1 | BK channel alpha subunit (Cavia porcellus, UniProt A0A286XP95) | delayed rectifier K+ current, activator | dispersed vascular smooth muscle cells, guinea pig, SMA arteriole | at +40 mV |  | EC50 | 371 µM
CC(C(=O)Nc1nnc(S(N)(=O)=O)s1)C1CCCCC1 (centres unmarked) | Alpha-carbonic anhydrase | CO2 hydration, inhibitor, stopped-flow kinetics |  |  |  | Ki | 0.0198 µM
CCC(C)(NCCc1ccc(C(F)(F)F)cc1Cl)c1cccc(NC2=CC(=O)N(C3CCC(=O)NC3=O)C2=O)c1 (centres unmarked) | ZBTB11/CRBN | degrader | human cells |  |  | DC50 | 3.7 ± 1.3 µM
OC(Cn1cncn1)(Cn1cncn1)c1ccc(F)cc1F | Cytochrome P450 2A6 (CYP2A6, Homo sapiens, UniProt P11509) | binding |  | 20 min, pH 7.4, purified protein, 2% DMSO |  | Kd | 8.57 µM
COc1ccc(C=C2SC(=O)N(C(C)C(=O)O)C2=O)cc1 (centres unmarked) | USP49 ZnF-UBD domain |  |  |  |  | Kd | > 1000 µM
O=C1CCC(N2C(=O)C=C(Nc3cccc(C4CCN(CCc5ccc(C(F)(F)F)c(Cl)c5)CC4)c3)C2=O)C(=O)N1 (centres unmarked) | ZBTB11/CRBN | degrader, HiBiT luminescence, item: endogenous HiBiT-tagged protein |  |  |  | DC50 | 5.6 µM
COc1ccc(C[C@H](N)C(=O)N[C@H]2[C@@H](O)[C@H](n3cnc4c(N(C)C)ncnc43)O[C@@H]2CO)cc1 | Nuclear receptor subfamily 5 group A member 2, ligand-binding domain (NR5A2, Homo sapiens, UniProt O00482) | corepressor binding, fluorescence polarization |  | concentration not given, ligand-binding domain, added: DAX1 peptide | baseline: DMSO | coregulator peptide Kd change | no effect
CCOc1ccc(C(=O)CC(SCc2ccc(Cl)cc2)C(=O)OC)cc1 (centres unmarked) | PLEKHA5 PH domain | PLEKHA5 PI(4,5)P2 binding, fluorescence polarization |  | added: BODIPY-PI(4,5)P2 tracer |  | Ki | 135 ± 20 µM
O=C(O)CCc1ccccc1OCc1ccccn1 | USP49 ZnF-UBD domain |  |  |  |  | Kd | > 1000 µM
COc1cccc(C(=O)CC(SCc2ccc(Cl)cc2)C(=O)O)c1 (centres unmarked) | PLEKHA5 PH domain | PLEKHA5 PI(4,5)P2 binding, fluorescence polarization |  | added: BODIPY-PI(4,5)P2 tracer |  | Ki | 29.6 ± 3.3 µM
O=C1CCC(N2C(=O)C=C(Nc3cccc(S(=O)(=O)NCCc4ccc(C(F)(F)F)c(Cl)c4)c3)C2=O)C(=O)N1 (centres unmarked) | ZBTB11/CRBN | degrader, HiBiT luminescence, item: endogenous HiBiT-tagged protein |  |  |  | DC50 | 37 µM
Cc1ncsc1-c1ccc(CNC(=O)[C@@H]2C[C@@H](O)CN2C(=O)[C@@H](NC(=O)CCCCCCCCCCCC(=O)NCCCCC#Cc2cccc(-c3nn(-c4nc(C(=O)O)cs4)c(CC4CC4)c3Cc3ccc(S(N)(=O)=O)cc3)c2)C(C)(C)C)cc1 | LDHA (Homo sapiens, UniProt P00338) | degrader, western blot | PANC-1 | 48 h |  | DC50 | 0.038 ± 0.0005 µM
COc1cc2c(cc1OC)C1CC(=O)C(CC(C)C)CN1CC2 (centres unmarked) | SLC18A2 (Homo sapiens, UniProt Q05940, I308V) | FFN206 uptake, inhibitor, fluorescence imaging |  | I308V mutant, added: FFN206 5 µM |  | IC50 | 0.0429 µM
NS(=O)(=O)c1nnc(NC(=O)CCC2CCC(F)(F)CC2)s1 | Alpha-carbonic anhydrase | CO2 hydration, inhibitor, stopped-flow kinetics |  |  |  | Ki | 0.0284 µM
CCn1c(-c2nc3ccc(C(=O)N4CCCC(N)C4)cc3n2C)cc2ccccc21 (centres unmarked) | HTR1B (Homo sapiens, UniProt P28222) | agonist, GTPγS binding |  |  |  | EC50 | > 31.6 µM

SMILES | target or system | assay | test system | conditions | scale | measurement | value
O=C1CCC(N2C(=O)C=C(Nc3cccc(C4(NCCc5ccc(C(F)(F)F)c(Cl)c5)CCCC4)c3)C2=O)C(=O)N1 (centres unmarked) | ZBTB11/CRBN | degrader | human cells |  |  | DC50 | 0.2 ± 0.13 µM
OC[C@H]1OC(O)[C@H](O)[C@@H](O)[C@@H]1O (some centres unmarked) | Hexokinase-3 (HK3, Homo sapiens, UniProt P52790) | enzyme activity, substrate inhibitor, coupled G6PDH |  | partial inhibition model, added: ATP 20 mM |  | Ki | 2000 ± 1000 µM
CC[C@@H]1[C@H](F)C(=O)N[C@@H]1COc1nccc2cc(C(N)=O)c(OC)cc12 | GSK3A (Homo sapiens, UniProt P49840) | ATP-site probe binding, ActivX profiling | THP-1 cell lysate | Lys2 site |  | IC50 | > 5 µM
NS(=O)(=O)c1nnc(NC(=O)CCC2CCCCO2)s1 (centres unmarked) | Alpha-carbonic anhydrase | CO2 hydration, inhibitor, stopped-flow kinetics |  |  |  | Ki | 0.0339 µM
O=C(Nc1ccn(Cc2ccc(O)cc2C(F)(F)F)n1)c1c(F)cccc1F | Trpv4 (Rattus norvegicus, UniProt Q9ERZ8) | ion channel activity, agonist | cells overexpressing Trpv4 | rat receptor |  | EC50 | > 10 µM
NS(=O)(=O)c1nnc(NC(=O)COC2CCCCC2)s1 | Alpha-carbonic anhydrase | CO2 hydration, inhibitor, stopped-flow kinetics |  |  |  | Ki | 0.0137 µM
O=C(O)CCc1nc2ncccn2n1 | USP49 ZnF-UBD domain |  |  |  |  | Kd | > 1000 µM
CCCCC[C@H](O)/C=C/[C@H]1[C@H](O)CC(=O)[C@@H]1C/C=C\CCCC(=O)O | PTGER1 (Homo sapiens, UniProt P34995, F334L/G92S) | IP1 accumulation, agonist | AD293 |  |  | EC50 | 0.0302 µM
Cc1nc(F)ccc1-c1cc(Cn2ccn(C)c2=N)cc(C(=O)NCc2ccc(Cl)c(Cl)c2)c1 | WD repeat-containing protein 5, MLL1 complex (WDR5, Homo sapiens, UniProt P61964) | MLL1 methyltransferase activity, inhibitor |  | added: H3 peptide substrate |  | IC50 | 0.0199 ± 0.0096 µM
CC(C)(NCCc1ccc(C(F)(F)F)c(Cl)c1)c1cccc(NC2=CC(=O)N(C3CCC(=O)NC3=O)C2=O)c1 (centres unmarked) | ZBTB11/CRBN | degrader | human cells |  |  | DC50 | 0.14 ± 0.07 µM
O=C(O)CCn1ccccc1=O | USP20 ZnF-UBD domain |  |  |  |  | Kd | > 1000 µM
Cc1cccc(CC(=O)Nc2nnc(S(N)(=O)=O)s2)c1 | Alpha-carbonic anhydrase | CO2 hydration, inhibitor, stopped-flow kinetics |  |  |  | Ki | 0.0517 µM
Cc1cc(NC2=CC(=O)N(C3CCC(=O)NC3=O)C2=O)cc(C(C)(C)NCCc2ccc(C(F)(F)F)c(Cl)c2)c1 (centres unmarked) | ZBTB11/CRBN | degrader, HiBiT luminescence, item: endogenous HiBiT-tagged protein |  |  |  | DC50 | 11 µM
O=C(O)CCC(=O)c1cccs1 | USP49 ZnF-UBD domain |  |  |  |  | Kd | > 1000 µM
CN1CCN(c2ccc(Nc3ncc4cc(C#N)c(=O)n(C5CCCC5)c4n3)cc2)CC1 | NLK (Homo sapiens, UniProt Q9UBE8) |  |  |  |  | IC50 | 0.0383 µM
CC(C)(CNC1(c2cccc(NC3=CC(=O)N(C4CCC(=O)NC4=O)C3=O)c2)CCC1)c1ccc(C(F)(F)F)c(Cl)c1 (centres unmarked) | ZBTB11/CRBN | degrader | human cells |  |  | DC50 | 2 ± 2.7 µM
O=C(O)COc1cnc2ccccc2n1 | USP20 ZnF-UBD domain |  |  |  |  | Kd | > 1000 µM
NS(=O)(=O)c1nnc(NC(=O)CN2CCC3(CC2)CC3)s1 | Alpha-carbonic anhydrase | CO2 hydration, inhibitor, stopped-flow kinetics |  |  |  | Ki | 0.0245 µM
O=C(O)Cn1cnc2ccccc2c1=O | USP49 ZnF-UBD domain |  |  |  |  | Kd | > 1000 µM
COc1cc(Cl)c(S(=O)(=O)N2CCCCC2)cc1Cl | Melanopsin (OPN4, Homo sapiens, UniProt Q9UHM6) | calcium release, antagonist | CHO cells expressing OPN4 |  |  | Kb | 0.0064 µM
O=C(O)CN1Cc2ccccc2C1=O | USP49 ZnF-UBD domain |  |  |  |  | Kd | 525 µM
CC1CNC(=O)NC1=O (centres unmarked) |  | binding, equilibrium dialysis LC-MS |  | 5 µM, thermostabilized A2AR-BRIL construct | baseline: no-protein control, direction not given | z-scored log2 fold change | -0.334

Some of these lines once more:
SMILES | target or system | assay | test system | conditions | scale | measurement | value
CC(C(=O)Nc1nnc(S(N)(=O)=O)s1)C1CCCCC1 (centres unmarked) | Alpha-carbonic anhydrase | CO2 hydration, inhibitor, stopped-flow kinetics |  |  |  | Ki | 0.0198 µM
NS(=O)(=O)c1nnc(NC(=O)CCC2CCCCO2)s1 (centres unmarked) | Alpha-carbonic anhydrase | CO2 hydration, inhibitor, stopped-flow kinetics |  |  |  | Ki | 0.0339 µM
O=C(O)Cc1ccccc1O |  | binding, equilibrium dialysis LC-MS |  | 5 µM, thermostabilized A2AR-BRIL construct | baseline: no-protein control, direction not given | z-scored log2 fold change | -0.184
OC(Cn1cncn1)(Cn1cncn1)c1ccc(F)cc1F | Cytochrome P450 2A6 (CYP2A6, Homo sapiens, UniProt P11509) | binding |  | 20 min, pH 7.4, purified protein, 2% DMSO |  | Kd | 8.57 µM
